Results gathered from unrelated publications.
Compare with care: the assays were run in different laboratories. ± marks the error that the study gave. Ends that are not written are not given here.

Cc1ccc(S(=O)(=O)NC(=O)NN2CC3CCCC3C2)cc1 (stereo not shown) — blood glucose (mouse, STZ-induced diabetes; oral, 25 mg/kg, day 3): 358 ± 18.1 mg/dL
thrombin — chemerin level (sandwich ELISA; human, platelet-rich plasma; 5 units/mL, 5 min, 37 °C): 78 ± 0.7 ng/mL
Cc1noc(C)c1-c1cnc2c(-c3ccc(C(=O)O)cc3)cn([C@@H](C)c3ccccn3)c2c1 — median overall survival (C57BL/6 mouse, Eµ-TCL1 adoptive transfer; oral, 20 mg/kg daily): 41 days
CO[C@@H]1[C@H](N(C)C(=O)c2ccccc2)C[C@H]2O[C@]1(C)n1c3ccccc3c3c4c(c5c6ccccc6n2c5c31)C(=O)NC4 — CR after first induction cycle (newly diagnosed FLT3-mutant AML patients; oral, 50 mg twice daily, with: daunorubicin/cytarabine induction chemotherapy; reference: CR patients): 75%
CN(C(=O)c1c(Oc2ccc(F)cc2)nc2ncccn12)c1ccc(Cl)cc1 — fasting plasma glucose reduction (mouse C57BL/6J diet-induced obese; oral, 9 mg/kg once daily, 4 weeks, with: sitagliptin 1 mg/kg; reference: vehicle): 6.5%
O=C(NCc1ccncc1)C12CC3CC(C1)CC(c1ccc(Cl)cc1)(C3)C2 — partial response (RECIST; human, advanced solid tumours; 250 mg once daily): 7%
CCOc1ccc(-c2nc(-c3cccc4c3CCC4NCCO)no2)cc1OCC (stereo not shown) — ED50 (blood CD8+ cell count reduction, flow cytometry; mouse; intraperitoneal, 5 h): 2 mg/kg
CS/C(S)=N/CCCC[S+](C)[O-] (racemic) — mRNA fold change (RT-PCR, item: Gpx5; rat, colon; oral gavage, 200 mg/kg, 96 h, dosed for four days; reference: vehicle): 1.35
C[C@]12C=CC(=O)C=C1CC[C@H]1[C@@H]3C[C@@H](O)[C@](O)(C(=O)CO)[C@@]3(C)C[C@H](O)[C@@]12F — bone resorption reduction (histology; rat, MIA-induced osteoarthritis, knee MFC and LFC; intra-articular, 0.06 mg on 5, 12, 19 days after MIA, day 26; reference: vehicle): 49 to 50%
CC(=O)c1sc(N=C2c3ccccc3-c3nc4cc(F)ccc4nc32)nc1C — blood glucose (mouse, STZ-induced diabetes; oral, 25 mg/kg, day 3): 437 ± 51.6 mg/dL
CCOc1ccc(NC(=S)N(CCO)Cc2cc3cc(C)cc(C)c3[nH]c2=O)cc1 — reduction of intestinal ulcers (mouse, indomethacin-induced intestinal injury; oral, 10 µg/mouse twice daily, 2 days, with: indomethacin 10 mg/kg ip): 90%
CSVTCG — platelet aggregation (inhibitor; peptide, human platelet-rich plasma; 500 µg/mL, with: ADP 4 µM): inhibited
CCCCN(CC)c1nc(C)nc2c1c(C)cn2-c1c(C)cc(C)cc1C — CREB phosphorylation (inhibitor, item: CREB phospho-Ser133; hippocampal pyramidal neurons, Sprague-Dawley rat pups; 100 nM, 30 min pretreatment, with: CRF 40 nM for 15 min): inhibited
CC[C@H](C)[C@H](NC(=O)[C@H](C)NC(=O)[C@H](CCCNC(=N)N)NC(=O)[C@H](Cc1c[nH]c2ccccc12)NC(=O)[C@H](CCC(N)=O)NC(=O)[C@@H](N)C(C)C)C(=O)N[C@@H](CCCNC(=N)N)C(=O)N[C@H](C(=O)N[C@@H](CCCNC(=N)N)C(=O)N[C@H](C(=O)N[C@H](C(=O)N[C@@H](CCCNC(=N)N)C(N)=O)[C@@H](C)CC)C(C)C)C(C)C — leakage (carboxyfluorescein release; EYPG vesicles; 10 µg/mL, 250 s, pH 7.4, 25 °C; reference: Triton X-100): 32%
CC(C)[C@H](NC(=O)[C@@H]1CSSC[C@H](NC(=O)[C@H](CC(=O)O)NC(=O)[C@@H]2CCCN2C(=O)[C@@H](NC(=O)[C@@H](N)CCC(=O)O)[C@@H](C)O)C(=O)N[C@@H](Cc2ccccc2)C(=O)N[C@@H](Cc2c[nH]c3ccccc23)C(=O)N[C@@H](CCCCN)C(=O)N[C@@H](Cc2ccc(O)cc2)C(=O)N1)C(=O)O — ICP increase AUC (male Wistar rats, anaesthetised; intracavernous, 0.3 nmol per rat): 65.8 ± 3.7 mmHg·s
O=C1CCc2ccc(OCc3nnc(SCc4ccccc4)o3)cc2N1 — immobility duration decrease (forced swimming test; mice; 40 mg/kg, 0.5 h; reference: control): 17.8%
gamma-MSH — heart rate response onset time (Sprague Dawley rat, urethane-anaesthetised; intravenous, 15 nmol): 22 ± 3.26 s
CC12CCC(CC1=O)C2(C)C (stereo not shown) — proportion of food consumed (two-choice feeding trial; Sylvilagus nuttallii; 1% dry weight in diet, 72 h, with: monoterpene mixture 1% dry weight): 31 ± 0.08%
CC(=O)Nc1cccc(OCc2nnc(SCc3ccc(C)cc3)o2)c1 — immobility duration decrease (forced swimming test; mice; 40 mg/kg, 0.5 h; reference: control): 39.2%
CCN(CC)CCNC(=O)c1c(C)[nH]c(/C=C2\C(=O)Nc3ccc(F)cc32)c1C — microvessel area (item: CD31; mouse, C26 tumour, tumour; oral, 100 mg/kg, two weeks): decreased
CCOc1ccc(Cc2cc([C@@H]3O[C@H](SC)[C@@H](O)[C@H](O)[C@H]3O)ccc2Cl)cc1 — urinary glucose excretion (healthy Chinese subjects; oral, 400 mg once daily, 24 h, day 1): 45 g
Polymyxin B — TNF-α release (human whole blood; 250 ng/mL, 4 h, 37 °C, with: E. coli LPS 0.5 ng/mL; reference: LPS without compound): 4.2 ± 2.3%
CC(C)C[C@H](NC(=O)[C@H](CO)NC(=O)[C@H](CCCNC(=N)N)NC(=O)[C@H](CC(=O)O)NC(=O)[C@H](CCC(=O)O)NC(=O)[C@H](C)NC(=O)[C@@H]1CCCN1C(=O)[C@H](C)NC(=O)[C@H](CCC(=O)O)NC(=O)[C@@H]1CCCN1C(=O)[C@@H]1CCCN1)C(N)=O — dopamine level (HPLC-EC; F344 rat, normal, striatum, wet tissue, both hemispheres; intranasal, 1000 µg, 5 days/week for 3 weeks): 9910 ± 991 ng/g
COc1ccc2c(c1)c(CC(=O)O)c(C)n2C(=O)c1ccc(Cl)cc1 — cytokine level (multiplex bead immunoassay, item: MIP1-α; CD-1 mice, serum; ip, 20 mg/kg, three-injection regimen, with: LPS 3 mg/kg): 112 ± 29.2 pg/mL
Cc1cc(C)c(/C=C2\C(=O)Nc3ccccc32)[nH]1 — tumour volume (MRI; human; dose not given, 5.4 months): 75.9 cm³
COc1ccc(-c2ccc3c(N4CCOC[C@@H]4C)nc(N4CCOC[C@@H]4C)nc3n2)cc1CO — median graft survival (B6 mouse, BALB/c heart allograft; intraperitoneal, 10 mg/kg twice daily, with: rapamycin 2 mg/kg then 1 mg/kg/day): 28 days
Oc1ncnc2[nH]ncc12 — maximum change in serum uric acid (male gout patients, serum; 300 mg, steady state, with: verinurad 10 mg alone or combined; reference: time-matched baseline): -43%
CCCCCCCCCCCCCCCC(=O)NCCCC[C@H](NC(=O)[C@H](CCC(=O)O)NC(=O)[C@H](CCC(=O)O)NC(=O)[C@H](Cc1ccc(O)cc1)NC(=O)[C@H](CCC(=O)O)NC(=O)CCCCCNC(=S)Nc1ccc2c(c1)C(=O)OC21c2ccc(O)cc2Oc2cc(O)ccc21)C(=O)N[C@@H](Cc1ccc(O)cc1)C(=O)N[C@@H](CCC(=O)O)C(=O)NCC(=O)NCC(=O)NCC(=O)NCC(=O)N[C@@H](CO)C(=O)NCC(=O)NCC(=O)NCC(=O)NCC(=O)N[C@@H](CO)C(=O)N[C@@H](Cc1ccccc1)C(=O)N[C@@H](CC(N)=O)C(=O)N1CCC[C@H]1C(=O)N[C@@H](CCCNC(=N)N)C(=O)N[C@@H](Cc1c[nH]cn1)C(=O)NC(C)(C)C(=O)N[C@@H](CCC(=O)O)C(=O)NCC(=O)N[C@H](C(=O)N[C@@H](Cc1ccccc1)C(=O)N[C@H](C(=O)N[C@@H](CO)C(=O)N[C@@H](CC(=O)O)C(=O)N[C@H](C(=O)N[C@@H](CO)C(=O)N[C@@H](CO)C(=O)N[C@@H](Cc1ccc(O)cc1)C(=O)N[C@@H](CC(C)C)C(=O)N[C@@H](CCC(=O)O)C(=O)NCC(=O)N[C@@H](CCC(N)=O)C(=O)N[C@@H](C)C(=O)N[C@@H](C)C(=O)N[C@@H](CCCCN)C(=O)N[C@@H](CCC(=O)O)C(=O)N[C@@H](Cc1ccccc1)C(=O)N[C@H](C(=O)N[C@@H](C)C(=O)N[C@@H](Cc1c[nH]c2ccccc12)C(=O)N[C@@H](CC(C)C)C(=O)N[C@H](C(=O)N[C@@H](CCCCN)C(=O)NCC(=O)N[C@@H](CCCNC(=N)N)C(=O)NCC(=O)O)C(C)C)[C@@H](C)CC)C(C)C)[C@@H](C)O)[C@@H](C)O — glucose reduction (db/db mouse; subcutaneous, 30 nmol/kg, 0.5 h before glucose, AUC 0-120 min, with: oral glucose 2.0 g/kg; reference: saline): 36.3%
KCNTATCATQRLANFLVHSSNNFGPILPPTNVGSNTY (Pramlintide; not fully specified (C-terminus, bridges); cysteine pairing not given here; sequence looked up) — body weight loss (peptide, obese or overweight humans; dose not given, 24 weeks; reference: initial weight): ~8%
CCCCCCCSc1nnc(COc2ccc3c(c2)NC(=O)CC3)o1 — immobility duration decrease (forced swimming test; mice; 40 mg/kg, 0.5 h; reference: control): 19.3%
c1ccc(CNCc2ccc(CN3CCCNCCNCCCNCC3)cc2)nc1 — platelet aggregation (multiple electrode aggregometry; human blood; 100 nM, with: collagen 0.2 µg/mL): decreased
CC(=O)N[C@@H](CCCCN)C(=O)N[C@@H](CC(C)C)C(=O)N[C@@H](CC(=O)O)C(=O)N[C@@H](CC(C)C)C(=O)N[C@@H](CCCCN)C(=O)N[C@@H](CC(C)C)C(=O)N[C@@H](CC(=O)O)C(=O)N[C@@H](CC(C)C)C(=O)N[C@@H](CCCCN)C(=O)N[C@@H](CC(C)C)C(=O)N[C@@H](CC(=O)O)C(=O)N[C@@H](CC(C)C)C(N)=O — modified Mankin score (Sprague Dawley rat, knee OA model, knee cartilage; intra-articular, dose not given, 6 weeks; direction not given): 4 ± 0.8
insulin lispro — maximum glucose infusion rate (euglycemic clamp; obese type 2 diabetic patients; subcutaneous, 50 units, 8 h): 2.5 mg/kg/min
AGEDPHGYFLPGQFA — peritoneal neutrophils (peptide, C57BL/6J mouse, zymosan peritonitis; ip, 0.32 ng/kg, 4 h after zymosan, dosed 1 h before zymosan): 780000 cells
C[C@H]1C[C@H]2CSC(N)=N[C@@]2(c2nc(NC(=O)c3ccc(OC(F)F)cn3)cs2)CO1 — change from baseline (item: CSF sAPPβ; healthy adults; 275 mg once daily, 14 days, day 15; reference: placebo-adjusted baseline): -83.4%
CC[C@H](C)[C@H](N)C(=O)N[C@@H](CC(C)C)C(=O)N1CCC[C@H]1C(=O)N[C@@H](Cc1c[nH]c2ccccc12)C(=O)N[C@@H](CCCCN)C(=O)N[C@@H](Cc1c[nH]c2ccccc12)C(=O)N1CCC[C@H]1C(=O)N[C@@H](Cc1c[nH]c2ccccc12)C(=O)N[C@@H](Cc1c[nH]c2ccccc12)C(=O)N1CCC[C@H]1C(=O)N[C@@H](Cc1c[nH]c2ccccc12)C(=O)N[C@@H](CCCNC(=N)N)C(=O)N[C@@H](CCCNC(=N)N)C(N)=O — leakage (carboxyfluorescein release; EYPG vesicles; 10 µg/mL, 250 s, pH 7.4, 25 °C; reference: Triton X-100): 18%
Ac-LRKLRKRLLRDWLKAFYDKVAEKLKEAF-NH2 (N-acetyl, C-amide) — plasma total cholesterol (peptide, APP/PS1ΔE9 mice, plasma; retro-orbital, 50 µg/mouse 3 times weekly, 6 weeks): 171 ± 13.8 mg/dL
insulin detemir — HbA1c (female Sprague-Dawley rat, blood; sc, 15 U/kg, 6 weeks): 4.45 ± 0.04%
CC(=O)Nc1cccc(OCc2nnc(SCc3cccc(C)c3)o2)c1 — immobility duration decrease (forced swimming test; mice; 40 mg/kg, 0.5 h; reference: control): 32.1%
CC(C)c1cc(Oc2c(Cl)cc(-n3nc(C#N)c(=O)[nH]c3=O)cc2Cl)n[nH]c1=O — dose (circulating triglycerides at vehicle level; Sprague Dawley rats, diet-induced dyslipidemia; with: ACC inhibitor 30 mg/kg): ≥ 1 mg/kg

A few entries again:
KCNTATCATQRLANFLVHSSNNFGPILPPTNVGSNTY (Pramlintide; not fully specified (C-terminus, bridges); cysteine pairing not given here; sequence looked up) — body weight loss (peptide, obese or overweight humans; dose not given, 24 weeks; reference: initial weight): ~8%
CCCCCCCSc1nnc(COc2ccc3c(c2)NC(=O)CC3)o1 — immobility duration decrease (forced swimming test; mice; 40 mg/kg, 0.5 h; reference: control): 19.3%
c1ccc(CNCc2ccc(CN3CCCNCCNCCCNCC3)cc2)nc1 — platelet aggregation (multiple electrode aggregometry; human blood; 100 nM, with: collagen 0.2 µg/mL): decreased
CC(=O)N[C@@H](CCCCN)C(=O)N[C@@H](CC(C)C)C(=O)N[C@@H](CC(=O)O)C(=O)N[C@@H](CC(C)C)C(=O)N[C@@H](CCCCN)C(=O)N[C@@H](CC(C)C)C(=O)N[C@@H](CC(=O)O)C(=O)N[C@@H](CC(C)C)C(=O)N[C@@H](CCCCN)C(=O)N[C@@H](CC(C)C)C(=O)N[C@@H](CC(=O)O)C(=O)N[C@@H](CC(C)C)C(N)=O — modified Mankin score (Sprague Dawley rat, knee OA model, knee cartilage; intra-articular, dose not given, 6 weeks; direction not given): 4 ± 0.8
